Experimental data collected from several papers.
Each line is one published result; not all experiments were run side by side.
Organism: Mycobacterium tuberculosis

SMILES | assay | system | conditions | MIC
COc1c(N2CC3CCCNC3C2)c(F)cc2c(=O)c(C(=O)OCc3ccc([N+](=O)[O-])cc3)cn(C3CC3)c12 (centres unmarked) | microbial growth | H37RV | – | 2 µM
Cc1nc2ccc(OC(F)(F)F)cn2c1C(=O)NCc1ccc2oc(-c3ccc(OC(F)(F)F)cc3)nc2c1 | optical density | H37Rv | 144 h | > 25 µM
COc1ccc2nccc(CC[C@H]3OC[C@H](NC(=O)c4ccc(C)cc4)CO3)c2c1 | microbial growth | H37RV | – | > 32 mg/L
Cc1ccc2nc(C)c(CC(=O)NCc3ccccc3)n2c1 | microbial growth | H37RV | 5 days | > 20 µM
Cc1[nH]n(-c2ccccc2)c(=O)c1/N=N/c1nnc(S)[nH]1 | microbial growth, resazurin | H37RV | 5 days | > 64 mg/L
Cc1ccc(-c2nc3ccc(C)cn3c2C(=O)C(=O)NCc2ccc(N(C)C)cc2)cc1 | microbial growth, resazurin | H37RV | – | > 50 µM
CCOc1cc(/C=N/NC(=O)c2ccncc2)ccc1OC(=O)CN1C(=O)CSC1=O | microbial growth, resazurin | H37RV | – | 0.283 µM
Cc1nnc2nc(-c3ccccn3)cc(NCCc3ccc(OC(F)(F)F)cc3)n12 | microbial growth | H37RV | – | 17 µM
O=C1NN(c2ccccc2)C(=O)C1/N=N/c1nnc(S)s1 (centres unmarked) | microbial growth, resazurin | H37RV | 5 days | > 64 mg/L
Clc1ccc(CCNc2cc(-c3nccs3)nc3nncn23)cc1 | microbial growth | H37RV | 5 days | 55 µM
Cc1nc2cc(OC(F)(F)F)ccn2c1C(=O)NCc1ccc2oc(-c3ccc(OC(F)(F)F)cc3)nc2c1 | optical density | H37Rv | 144 h | > 10 µM
Cc1ccc2nc(C)c(C(=O)C(=O)NCc3ccccc3)n2c1 | microbial growth | H37RV | 5 days | 8.5 µM
COc1ccc2nccc(CC[C@H]3OC[C@H](NC(=O)c4ccc(C(C)(C)C)cc4)CO3)c2c1 | microbial growth | H37RV | – | 8 mg/L
CN[C@@H]1[C@H](O)[C@H](NC)[C@H]2O[C@]3(O)[C@H](O[C@@H]2[C@H]1O)O[C@H](C)C[C@H]3NC(=O)Cc1cscn1 | microbial growth, broth dilution | H37RV | – | 1.6 mg/L
Cc1nn(-c2ccccc2)c(C)c1/N=N/c1nnc(S)s1 | microbial growth, resazurin | H37RV | 5 days | > 64 mg/L
CC(C)C[C@H](NC(=O)[C@H](C)NC(=O)[C@H](CCC(=O)O)NC(=O)[C@@H](N)Cc1c[nH]cn1)C(=O)N[C@H](C(=O)N[C@@H](CC(=O)O)C(=O)N1CCC[C@H]1C(=O)N[C@@H](CC(=O)O)C(=O)O)[C@@H](C)OP(=O)(O)O | – | H37Rv | – | > 100 mg/L
CCCCN(CCCC)CC(O)COc1c2ccoc2c(OC)c2oc(CC)cc(=O)c12 (centres unmarked) | microbial growth, resazurin | – | 21 days | 16 mg/L
CCC(CO)NCCNC(CC)CO.O=C(CN1C(=O)CSC1=O)Oc1ccc(C=NNC(=O)c2ccccn2)cc1Br | growth in combination | 192 | added: reference drug at 1/2 MIC | 0.5 mg/L
COc1c(N2CC3CCCNC3C2)c(F)cc2c(=O)c(C(=O)OCc3cncs3)cn(C3CC3)c12 (centres unmarked) | microbial growth | H37RV | – | 2 to 8 µM
CCc1nc2cc(Br)ccn2c1C(=O)NCc1ccc2oc(-c3ccc(OC(F)(F)F)cc3)nc2c1 | optical density | H37Rv | 144 h | > 10 µM
COc1ccc2nccc(CC[C@H]3OC[C@H](NCc4ccc5c(c4)OCCO5)CO3)c2c1 | microbial growth | H37RV | – | 32 mg/L
CCc1nc2cc(Br)ccn2c1C(=O)NCc1ccc2oc(-c3ccc(Cl)cc3)nc2c1 | optical density | H37Rv | 144 h | > 10 µM
CCOc1c(Cl)cnn(-c2ccccc2)c1=O | bacterial growth | H37Rv, Sauton's medium | – | 1000 µM
Cc1[nH][nH]c(=O)c1/N=N/c1nnc(S)s1 | microbial growth, resazurin | H37RV | 5 days | > 64 mg/L

SMILES | assay | system | conditions | MIC
O=C(CN1C(=O)CSC1=O)Oc1ccc(/C=N/NC(=O)c2ccncc2)cc1Br | microbial growth, resazurin | H37RV | – | 0.262 µM
Cc1nc2ccc(C(F)(F)F)cn2c1C(=O)NCc1ccc2oc(-c3ccc(OC(F)(F)F)cc3)nc2c1 | optical density | H37Rv | 144 h | > 25 µM
COCCOc1ccc(Nc2cc(-c3ccccn3)nc3ncnn23)cc1 | microbial growth | H37RV | 5 days | > 100 µM
O=C(CN1C(=O)CSC1=O)Oc1ccc(/C=N/NC(=O)c2ccncc2)cc1Cl | microbial growth, resazurin | H37RV | – | 0.144 µM
COc1ccc2ncc(F)c(C(O)C[C@H]3OC[C@H](NCc4ccc5c(c4)OCCO5)CO3)c2c1 (some centres unmarked) | microbial growth | H37RV | – | 8 mg/L
Nc1cc(S(N)(=O)=O)ccc1O | – | pabC deletion mutant | concentration not given, 12 days | > 100 µM
NC(=S)N/N=C/c1ccc(OC(=O)CC2SC(=O)NC2=O)cc1 (centres unmarked) | microbial growth, resazurin | H37RV | – | 2.84 µM
CCc1ccn2c(C(=O)NCc3ccccc3)c(C)nc2c1 | microbial growth | H37RV | 5 days | 0.02 µM
CCCCNc1c(Cl)cnn(-c2ccccc2)c1=O | bacterial growth | H37Rv, Sauton's medium | – | 900 µM
O=C(CN1C(=O)CSC1=O)Oc1ccc(/C=N/NC(=O)c2cccnc2)cc1Br | microbial growth, resazurin | H37RV | – | 268 µM
CCSc1cnn(-c2ccccc2)c(=O)c1Cl | bacterial growth | H37Rv, 7H9 medium with OADC | – | > 940 µM
CCOc1cc(/C=N/NC(=O)c2cccnc2)ccc1OC(=O)CN1C(=O)CSC1=O | microbial growth, resazurin | H37RV | – | 579 µM
O=c1c(N2CCCC2)c(Cl)cnn1-c1ccccc1 | bacterial growth | H37Rv, Sauton's medium | – | 910 µM
COc1ccc2ncc(F)c(C[C@H](O)[C@H]3OC[C@H](NCc4ccc(C)cc4)CO3)c2n1 | microbial growth | H37RV | – | ≤ 1 mg/L
O=c1c(Cl)c(Cl)cnn1Cc1ccccc1 | bacterial growth | H37Rv, 7H9 medium with OADC | – | 490 µM
Cc1nc2ccc(C(F)(F)F)cn2c1C(=O)NCc1ccc2oc(-c3ccc(Cl)cc3)nc2c1 | optical density | H37Rv | 144 h | > 10 µM
Cc1[nH][nH]c(=O)c1/N=N/c1nnc(S)[nH]1 | microbial growth, resazurin | H37RV | 5 days | > 64 mg/L
CCc1nc2ccccn2c1C(=O)NCc1ccc2oc(-c3ccc(OC(F)(F)F)cc3)nc2c1 | optical density | H37Rv | 144 h | > 25 µM
NNC(=O)c1ccncc1.O=C(CN1C(=O)CSC1=O)Oc1ccc(C=NNC(=O)c2ccncc2)cc1 | growth in combination | 192 | added: reference drug at 1/2 MIC | 0.0312 mg/L
COc1c(Cl)cnn(-c2cccc(C)c2)c1=O | bacterial growth | H37Rv, Sauton's medium | – | > 1000 µM
CCc1nc2ccc(Br)cn2c1C(=O)NCc1ccc2oc(-c3ccc(OC(F)(F)F)cc3)nc2c1 | optical density | H37Rv | 144 h | 0.4 µM
Cc1nc(=S)[nH]c(C)c1/N=N/c1nnc(S)[nH]1 | microbial growth, resazurin | H37RV | 5 days | 4 to 64 mg/L
Cc1ccc2nc(C)c(C(=O)C(=O)NCc3ccc(N(C)C)cc3)n2c1 | microbial growth | H37RV | 5 days | 3.1 µM

For quick reference, copied from above:
SMILES | assay | system | conditions | MIC
COc1c(N2CC3CCCNC3C2)c(F)cc2c(=O)c(C(=O)OCc3cncs3)cn(C3CC3)c12 (centres unmarked) | microbial growth | H37RV | – | 2 to 8 µM
CCc1nc2cc(Br)ccn2c1C(=O)NCc1ccc2oc(-c3ccc(OC(F)(F)F)cc3)nc2c1 | optical density | H37Rv | 144 h | > 10 µM
COc1ccc2nccc(CC[C@H]3OC[C@H](NCc4ccc5c(c4)OCCO5)CO3)c2c1 | microbial growth | H37RV | – | 32 mg/L
